Measured values from different studies.
Compare with care: the assays were run in different laboratories. “And” joins repeats or separate records; there may be more than shown. ± gives the spread as reported.
Kir3.1/Kir3.4: Kir3.1/Kir3.4 (Homo sapiens, UniProt P48544+P48549)
AKR1B1: Aldo-keto reductase family 1 member B1 (AKR1B1, Homo sapiens, UniProt P15121)
pyrD: Dihydroorotate dehydrogenase (quinone) (pyrD, Acinetobacter baumannii, UniProt B7GZW7)
T1: riboswitch RNA yjdF aptamer domain (Bacillus subtilis); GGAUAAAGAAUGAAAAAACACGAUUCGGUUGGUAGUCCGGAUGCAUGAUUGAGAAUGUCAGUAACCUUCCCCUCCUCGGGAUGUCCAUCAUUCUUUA

Oc1ccccc1-c1n[nH]cc1-c1ccnc2ccccc12
log2 fold change (Serine/threonine-protein kinase CLA4 (CLA4, Candida albicans, UniProt O14427); kinase binding, MIB/MS competition; Candida albicans lysate; 1 µM; relative to: DMSO, negative = stronger binding): 0.01

Nc1ncnc2c1ncn2[C@@H]1O[C@H](COP(=O)(O)OP(=O)(O)OP(=O)(O)O)[C@@H](O)[C@H]1O
kcat (CKMT1A (Homo sapiens, UniProt P12532, E265D); substrate, ADP-Glo luminescence; pH 8.5, forward reaction, E227D mutant, with: second substrate in excess): 0.004 ± 0.002 s⁻¹

O=C(COc1cc(Cl)ccc1Cl)Nc1cc(C2CC2)nn1C1CCC(F)(F)CC1
Emax (Kir3.1/Kir3.4; thallium flux, activator; HEK293; relative to: standard compound): 31%

O=C(C[C@@H](C(F)F)n1ccc(F)n1)N1CCC(O)(Cn2cnc3c(cnn3-c3ccc(F)cc3)c2=O)CC1
binding enthalpy (USP7 (Homo sapiens, UniProt Q93009, V517F); isothermal titration calorimetry; concentration not given, USP7 V517F): -17.3 ± 2.4 kcal/mol

Cc1n[nH]c2ccc(-c3cc(OC[C@@H](N)Cc4ccccc4)cnc3-c3ccoc3)cc12
log2 fold change (Cyclin-dependent kinase 1 (CDC28, Candida albicans, UniProt P43063); kinase binding, competitor, MIB/MS competition, refers to: CDC28; Candida albicans cell lysate; 1 µM; relative to: DMSO): 0.127

[H]/N=C(/N)NCC(=O)O
normalised MST signal (SLC6A6 (Homo sapiens, UniProt P31641, G62A); binding, microscale thermophoresis; 122 nM, room temperature, with: 50 nM labelled protein; higher = more binding): 0.00654

Nc1ncnc2c1ncn2[C@@H]1O[C@H](COP(=O)(O)OP(=O)(O)OP(=O)(O)O)[C@@H](O)[C@H]1O
normalized current (P2X purinoceptor 7 (P2rx7, Rattus norvegicus, UniProt Q64663, I214A/Q143A); ion current, agonist, two-electrode voltage clamp; Xenopus laevis oocytes; 900 µM; relative to: highest concentration response): 0.88 and 0.94 and 0.96

NC/C(=C\F)COc1cccc(Cn2c(=S)[nH]c(=O)c3[nH]cnc32)c1
inhibition (Amine oxidase [copper-containing] 3 (Rattus norvegicus, UniProt O08590); rat adipose tissue; 0.3333 µM): 98.4%

CCCCC/C=C\C/C=C\C/C=C\C/C=C\CCCC(=O)O
metabolism rate (Cytochrome P450 2J2 (CYP2J2, Homo sapiens, UniProt P51589, L2A); substrate; 50 µM): 50 ± 4.1 pmol/min/nmol CYP2J2

COc1cc(/C=C2\SC(=O)N(CC(=O)c3ccc([N+](=O)[O-])cc3)C2=O)cc(OC)c1OC
log IC50 (AKR1B1; enzyme activity, inhibitor): 2.86 log nM

CC(=C/C(=O)O)/C=C/C=C(\C)C1C=C2C(C)(C)CCCC2(C)O1 (stereo not drawn)
plasma membrane localization (Rhodopsin (RHO, Homo sapiens, UniProt P08100, E181K); immunostaining, refers to: opsin; COS-7 transfected; 0.10 µM, unit not given; relative to: surface over total stained cells): 0

CC1=NNC(=S)NC(=O)C1/N=N/c1ccc(S(N)(=O)=O)cc1 (stereo not drawn)
inhibition (bovine α-glucosidase; enzyme activity, inhibitor, glucose oxidase; 200 µg/mL, with: maltose): 35.4%

Cc1cc(Nc2ccc(S(F)(F)(F)(F)F)cc2)n2ncnc2n1
robust Z-score (pyrD; enzyme activity, inhibitor, colorimetric HTS, refers to: DCIP reduction; 3 µM; direction not given): 23.8

CCCCC[C@H](O)/C=C/[C@H]1[C@H](O)CC(=O)[C@@H]1C/C=C\CCCC(=O)O
Emax (PTGER1 (Homo sapiens, UniProt P34995, F334L/G92S); IP1 accumulation, agonist; AD293; 1 h; relative to: wild type receptor): 98 ± 3.5%

Cc1cc(Nc2cc(N3CCN(C)CC3)nc(Sc3ccc(NC(=O)C4CC4)cc3)n2)[nH]n1
remaining activity (SRC (Homo sapiens, UniProt P12931); kinase activity, KinaseProfiler; 0.03 µM, species human; relative to: control): 86%

Nc1nc2c(ncn2[C@@H]2O[C@H](COP(=O)(O)O)[C@@H](O)[C@H]2O)c(=O)[nH]1
reaction velocity (GUK1 (Homo sapiens, UniProt Q16774); enzyme activity, NADH-coupled; 250 µM, with: NaCl 150 mM): 0.0745 µM/s and 0.0744 µM/s and 0.0702 µM/s

O=C(O)[C@@H]1CCCN1c1ncnc2[nH]cnc12 (racemic)
log fold enrichment (Protein transport protein Sec31A (SEC31A, Homo sapiens, UniProt O94979); binding, affinity selection mass spectrometry; relative to: other proteins in batch): -0.0166

Cc1nn(C2CCS(=O)(=O)C2)c(C)c1NC(=O)COc1cccc(Cl)c1Cl (stereo not drawn)
activity (Kir3.1/Kir3.4; activator, thallium flux; HEK293; concentration not given): inactive

Nc1nc(=O)n([C@H]2C[C@H](O)[C@@H](CO)O2)cc1CNCC[C@H](N)C(=O)O
inhibition type (DNMT1 (Homo sapiens, UniProt P26358); radiometric [3H]-SAM; concentration not given, with: SAM, poly(dI-dC)): inhibited

Cc1cc(Nc2ccc(C(F)(F)F)cc2)c2ccccc2n1
robust Z-score (pyrD; enzyme activity, inhibitor, colorimetric HTS, refers to: DCIP reduction; 3 µM; direction not given): 23.4

COc1ccccc1-c1n[nH]c2nc(N[C@H]3CC[C@H](NS(=O)(=O)CCCOCCOCCNC(=O)OC(C)(C)C)CC3)ncc12
log2 fold change (cdc2-related kinase 6 (Leishmania donovani, UniProt A0A3Q8IPR6); resin binding, SILAC competition pull-down, refers to: CRK6; Leishmania donovani extract; 10 µM; relative to: heavy over light): 4.23

CCc1cc(NC(=O)COc2cccc(Cl)c2Cl)n(CC(F)(F)F)n1
Emax (Kir3.1/Kir3.4; thallium flux, activator; HEK293; relative to: standard compound): 75%

CC(=O)N[C@H](C(=O)N[C@H](C(=O)N[C@@H](Cc1ccccc1)C(=O)N[C@H](C(=O)N[C@@H](CO)C(=O)N[C@@H](Cc1c[nH]c2ccccc12)C(=O)N[C@@H](CCC(=O)O)C(=O)N[C@@H](CCC(=O)O)C(=O)N[C@@H](Cc1ccc(O)cc1)C(=O)N[C@@H](CC(C)C)C(=O)N[C@@H](CC(=O)O)C(=O)N[C@@H](Cc1c[nH]c2ccccc12)C(=O)N[C@H](C(N)=O)C(C)C)[C@@H](C)O)C(C)C)[C@@H](C)O
koff (PCSK9 (Homo sapiens, UniProt Q8NBP7); binding, SPR; 156 nM to 5 µM, 20 °C): 0.151 s⁻¹

O=c1nc(SCc2cc(F)cc(C(F)(F)F)c2)nc(SCc2ccc3sccc3c2)[nH]1
linear DNA (TOP2A (Homo sapiens, UniProt P11388); DNA cleavage; 31.25 µM, replicate 2): 6.6%

CC(=O)O[C@H](CC(=O)[O-])C[N+](C)(C)C
Ki (Carnitine O-acetyltransferase (CRAT, Columba livia, UniProt P52826); stopped-flow global fit; pH 7.8, ambient, ordered bi-bi mechanism): 1.87 mM

Cc1cc(NC2Cc3cc(F)c(F)cc3C2)n2nc(C(F)(F)F)nc2n1
robust Z-score (pyrD; enzyme activity, inhibitor, colorimetric HTS, refers to: DCIP reduction; 3 µM; direction not given): 20.3

O=C(CN1C(=O)S/C(=C\c2cccc(Br)c2)C1=O)c1ccc([N+](=O)[O-])cc1
log IC50 (AKR1B1; enzyme activity, inhibitor): 2.61 log nM

C=CC(=O)N1CCC(COCC(=O)N2CCN(c3nc(-c4cnc(N)nc4C(F)F)nc(N4CCOC[C@@H]4C)n3)CC2)CC1
remaining binding (TAOK1 (Homo sapiens, UniProt Q7L7X3); KINOMEscan; 1 µM): 93%

Cn1c[n+]([C@@H]2O[C@H](COP(=O)(O)OP(=O)([O-])OP(=O)(O)OC[C@H]3O[C@@H](n4cnc5c(=O)[nH]c(N)nc54)[C@H](O)[C@@H]3O)[C@@H](O)[C@H]2O)c2nc(N)[nH]c(=O)c21
hydrolysis (DCPS (Homo sapiens, UniProt Q96C86); substrate, HPLC; concentration not given, 15 min): 67 ± 7%

CCCCC[C@H](O)/C=C/[C@H]1C(=O)C[C@H](O)[C@@H]1C/C=C\CCCC(=O)O
activation (PTGDR (Homo sapiens, UniProt Q13258, D262A); agonist; 0.002441 µM): 24.1%

C[C@]12C[C@H](O)[C@H]3[C@@H](CCC4=CC(=O)CC[C@@]43C)[C@@H]1CC[C@@H]2C(=O)CO
koff (CYP11B1 (Homo sapiens, UniProt P15538); nanodiscs; 25 °C, fast phase): 19 ± 5 s⁻¹

N[C@@H](Cc1ccccc1)C(=O)Nc1ccc2ccccc2c1
kcat (rat aminopeptidase III; substrate; MW 110 kDa): 5.17 s⁻¹

NCCS(=O)(=O)O
normalised MST signal (SLC6A6 (Homo sapiens, UniProt P31641, S402A); binding, microscale thermophoresis; 250 µM, room temperature, with: 50 nM labelled protein; higher = more binding): -0.0301

O=c1cc(-c2ccc([N+](=O)[O-])cc2)[nH]c2c(-c3ccc(Cl)cc3)c(Cc3ccccc3)nn12
melting temperature shift (Heme-binding protein 1 (HEBP1, Homo sapiens, UniProt Q9NRV9); thermal stability, binder, thermal proteome profiling; RD, cell lysate; 50 µM, 0.5% DMSO; relative to: DMSO vehicle): 3.9 °C

O=C(NC1CCC1)c1ccc2nc(-c3cccc(NS(=O)(=O)NCCN4CCCCC4)c3)cn2c1
remaining activity (ACVRL1 (Homo sapiens, UniProt P37023); enzyme activity; 10 µM): 100%

COc1cc(/C=C2\SC(=O)N(Cc3nc4ccccc4s3)C2=O)cc(OC)c1OC
Hill slope (AKR1B1; enzyme activity, inhibitor): -0.565

O=C(Nc1cccc2c(=O)cc(-c3nnn[nH]3)oc12)c1ccc(OCCCCc2ccccc2)cc1
Hill coefficient (LRRC8A/LRRC8C (Homo sapiens, UniProt Q8IWT6+Q8TDW0, Y124F/Y126F); whole-cell patch clamp; HCT116 LRRC8-/- transfected; at +100 mV): 0.82

CSc1nc2nc(C)cc(Nc3ccc(S(F)(F)(F)(F)F)cc3)n2n1
robust Z-score (pyrD; enzyme activity, inhibitor, colorimetric HTS, refers to: DCIP reduction; 3 µM; direction not given): 26.8

O=C(COc1ccc(Cl)cc1Cl)Nc1nn(-c2ccccc2)c2ncccc12
activity (Kir3.1/Kir3.4; activator, thallium flux; HEK293; concentration not given): inactive

CC/C=C(\C)C=O
conversion (Enoyl-ACP reductase (Thermus thermophilus, UniProt P83818); substrate, biocatalytic transformation; pH 6.2, 30 °C, anaerobic, with: NADPH): 17%

[O-][S+]1CCCCS1 (stereo not drawn)
SOD1 monomer fraction (SOD1 (Homo sapiens, UniProt P00441, G94A); LC-MS; brain homogenate; 100 µM, 1 h, 37 °C): 73%

O=C(O)c1ccc(C(=O)O)c(-c2c3ccc(=O)cc-3oc3cc(O)ccc23)c1
Km (SLC22A11 (Homo sapiens, UniProt Q9NSA0); substrate; CHO cells expressing human OAT4; 5 min, pH 7.4): 325 ± 222 µM

Nc1ncnc2c1ncn2[C@@H]1O[C@H](COP(=O)(O)CP(=O)(O)OP(=O)(O)O)[C@@H](O)[C@H]1O
specific binding (P2X purinoceptor 1 (P2RX1, Homo sapiens, UniProt P51575, E122A); saturation binding; 52 nM): 606 corrected cpm and 372 corrected cpm and 594 corrected cpm

NC(N)=NCCC[C@H](N)C(=O)Nc1ccc2ccccc2c1
kcat (rat aminopeptidase III; substrate; MW 110 kDa): 6.88 s⁻¹

COc1cc(Nc2ncc3c(n2)-c2ccc(Cl)cc2C(c2c(F)cccc2OC)=NC3)ccc1C(=O)O
remaining activity (GRK4; kinase activity; 1 µM): 109%

O=C(COP(=O)(O)O)[C@@H](O)[C@H](O)[C@H](O)COP(=O)(O)O
enzyme activity (Phosphoglycerate mutase 1 (Homo sapiens, UniProt P18669); 0.03906 mM, unit not given; relative to: activity at 10 mM set to 100): 32.2 and 27.6 and 25

Nc1ccc2cc3ccc(N)cc3nc2c1
Kd (T1, riboswitch RNA yjdF aptamer domain (Bacillus subtilis); fluorescence titration): 1.4 nM

CC1=NNC(=O)C1=NNc1ccc(S(N)(=O)=O)cc1
inhibition (bovine α-glucosidase; enzyme activity, inhibitor, glucose oxidase; 200 µg/mL, with: maltose): 38.8%

A few entries again:
CC/C=C(\C)C=O
conversion (Enoyl-ACP reductase (Thermus thermophilus, UniProt P83818); substrate, biocatalytic transformation; pH 6.2, 30 °C, anaerobic, with: NADPH): 17%

[O-][S+]1CCCCS1 (stereo not drawn)
SOD1 monomer fraction (SOD1 (Homo sapiens, UniProt P00441, G94A); LC-MS; brain homogenate; 100 µM, 1 h, 37 °C): 73%
